Experimental data gathered from unrelated publications.
A part holds a random share of what one study measured.
Sequence of UniProt O75914 (whole entry, looked up): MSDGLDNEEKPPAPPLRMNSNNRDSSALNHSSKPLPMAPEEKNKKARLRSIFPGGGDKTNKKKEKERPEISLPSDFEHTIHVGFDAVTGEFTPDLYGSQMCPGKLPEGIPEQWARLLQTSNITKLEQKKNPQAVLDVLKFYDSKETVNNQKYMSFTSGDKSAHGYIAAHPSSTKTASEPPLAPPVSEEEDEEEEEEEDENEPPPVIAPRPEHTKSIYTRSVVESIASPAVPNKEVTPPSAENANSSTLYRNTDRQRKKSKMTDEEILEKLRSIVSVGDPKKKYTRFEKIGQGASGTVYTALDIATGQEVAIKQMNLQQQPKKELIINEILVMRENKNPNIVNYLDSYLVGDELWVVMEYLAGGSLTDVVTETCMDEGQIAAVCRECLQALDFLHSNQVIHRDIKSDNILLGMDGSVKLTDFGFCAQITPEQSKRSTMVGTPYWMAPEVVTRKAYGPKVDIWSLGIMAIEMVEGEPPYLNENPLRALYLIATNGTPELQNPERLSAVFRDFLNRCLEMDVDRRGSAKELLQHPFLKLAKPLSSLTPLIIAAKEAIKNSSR

Sample 1 — target: Sox-I, HMG box (Salpingoeca helianthica); technique: Spec-seq; molecule type: double-stranded DNA, one strand shown; matrix: in vitro; tested at: not given; notes: whole probe, mean of replicates; relative to: not given; reading: lower = stronger binding; shared flanks, not repeated: GAGTCGTCTCGTCAGCAC … CCGTAGAGCACTCAGGTC
Target sequence (chain): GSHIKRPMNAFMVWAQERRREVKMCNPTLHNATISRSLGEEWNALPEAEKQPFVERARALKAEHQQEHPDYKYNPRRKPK
Sequence	relative binding energy
TAAAGTT	0.372 ln ratio
CGCAGTT	0.583 ln ratio
ACAGGTT	0.058 ln ratio
CATCTAA	0.372 ln ratio
ATGCGTT	0.693 ln ratio
AGCGGTT	0.491 ln ratio
CATCTTG	0.653 ln ratio
ACACGTT	-0.0522 ln ratio

Sample 2 — technique: protein-binding microarray; molecule type: double-stranded DNA, one strand shown; matrix: in vitro; tested at: not given; reading: higher = stronger binding
Target: Protein C-ets-1 (ETS1, Homo sapiens, UniProt P14921, residues 1-441, full length assumed)
Notes: k-mer, scored over probes, only values ≥0.25
Construct (chain): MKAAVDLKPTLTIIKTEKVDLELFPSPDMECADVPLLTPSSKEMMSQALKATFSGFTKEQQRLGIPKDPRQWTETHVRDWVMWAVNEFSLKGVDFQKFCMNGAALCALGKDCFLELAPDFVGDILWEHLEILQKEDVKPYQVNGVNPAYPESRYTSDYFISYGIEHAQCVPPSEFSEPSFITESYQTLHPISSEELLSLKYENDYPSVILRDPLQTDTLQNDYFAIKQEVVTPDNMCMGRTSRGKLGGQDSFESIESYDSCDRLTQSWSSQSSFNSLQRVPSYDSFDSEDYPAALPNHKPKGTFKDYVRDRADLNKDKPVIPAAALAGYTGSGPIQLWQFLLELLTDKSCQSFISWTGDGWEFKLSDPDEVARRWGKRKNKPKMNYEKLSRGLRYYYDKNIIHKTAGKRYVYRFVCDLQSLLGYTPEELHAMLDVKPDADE
Sequence	E-score
GGAAGGAA	0.412
GGAAGGGA	0.414
GATATATC	0.327
CCCGGGAA	0.338
GTCCGGCA	0.332
GAGTTTCC	0.379
TCCGCACA	0.334
CCATATCC	0.379

Sample 3 — technique: competition protein-binding microarray; molecule type: double-stranded DNA, one strand shown; matrix: in vitro; tested at: 2 µM; together with: Cbf1 competitor, 0.05 µM; reading: higher = stronger binding; shared flanks, not repeated: … GTCTTGATTCGCTTGACGCTGCTG
Target: Phosphate system positive regulatory protein PHO4, full length, GST-tagged (PHO4, Saccharomyces cerevisiae, UniProt P07270, residues 1-312)
Notes: whole 60-bp probe, lowest competitor level
Target sequence (chain): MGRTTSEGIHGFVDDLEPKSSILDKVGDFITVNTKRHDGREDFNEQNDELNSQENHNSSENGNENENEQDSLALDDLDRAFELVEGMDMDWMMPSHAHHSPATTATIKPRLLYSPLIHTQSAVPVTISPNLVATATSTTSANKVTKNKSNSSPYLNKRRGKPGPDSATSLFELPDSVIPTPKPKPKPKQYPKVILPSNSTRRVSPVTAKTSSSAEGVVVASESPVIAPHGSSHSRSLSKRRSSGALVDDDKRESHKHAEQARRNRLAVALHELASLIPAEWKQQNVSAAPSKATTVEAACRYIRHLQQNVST
Sequence	fluorescence intensity
TATTGTGTCGCCTCGACCGTGATGGTTAGTTCCTAT	4460 a.u.
TCGAATAAAGTGAAACATGTGATACCCGCCATCCAA	9600 a.u.
TTAGTGCAAGAGGCACACATGCAGATTATGCATCAG	8600 a.u.
TACGAAAGATGGAAACACATGCAGAGAATGTGGTCT	10000 a.u.
CTTTCCCGATCTTGTAGCGTGGGTGTAGCACATTTG	7940 a.u.
ATCTTTCCGTGGAGTATCGTGACGGGACTAATGATC	6470 a.u.
GCTATTGTATTTTATGGCGTGGGTAAAAATTCAATA	7360 a.u.
AAGCACTGCGGTAGGTGCATGACAGGAGGCCCCTAG	5360 a.u.

Other studies, line by line
Compound	target	assay	setting	how to read	measurement	result
COc1cc2ncnc(Nc3ccc(O)c(Br)c3)c2cc1OC	Serine/threonine-protein kinase PAK 3 (PAK3, Homo sapiens, UniProt O75914)	enzyme activity, inhibitor	0.5 µM	relative to: control	remaining activity	94.2%

For quick reference, copied from above (sample 2):
Sequence	E-score
GTCCGGCA	0.332
GAGTTTCC	0.379
TCCGCACA	0.334
CCATATCC	0.379
